# Published values of several laboratories.
# Parts stem from different laboratories: compare values within a part only. Positions count from the first letter of the parent shown.

# Sample 1
# Target: RNA binding protein fox-1 homolog 2, RRM domain, GST-SBP tag (RBFOX2, Homo sapiens, UniProt O43251-10, residues 100-194)
# Method: RNA Bind-n-Seq
# Form: RNA
# Sample: in vitro
# Tested at: 365 nM
# Notes: natural RNA segment, single round, ends assumed
# Baseline: no-protein control
# Direction: higher = stronger binding
# All sequences stand within: GGGAGUUCUACAGUCCGACGAUC … UGGAAUUCUCGGGUGCCAA
# Target sequence (chain): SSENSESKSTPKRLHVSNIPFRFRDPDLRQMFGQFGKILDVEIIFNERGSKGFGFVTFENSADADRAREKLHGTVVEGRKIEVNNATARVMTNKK
Strand,RBNS enrichment (R)
CUAGUGUUUCACAUAAAAAUACUUCUGACAUAAAGUACCAAGAGCAGUGUGAAUAUACUUGGCAUAGUCAAAAAAGAAAAUACAUUUAAUAUUAGUUCAAAAUUGUUAAA,0.54
UUGUUUUAAAUUUUCAUCAAUGUAUAUAGAACAAAAUACCAUAUUAAAGAGGGGAAUGUGGAGGACUAAAGAUGACAGUUUGGACUUUUCUUUCUAUGCUAAGUAAUGUC,0.923
GUAUUUCUUAUGACUUUGCAUAAGAACUGUUCAUCUUUGGAUCUUGAGCACCUUACAGAUAAAACUUUUUAUGGCAUCUCUUUCAUGGACAGUGAUAUUGAUCUUUUCAC,0.318
CUAUGUAACAUGUAGGAAGUAGGAAGUAAAUUAUAGUGAUGUAAUCUUGAAUUGUAACUGUUCUUGAAUUUAAUAAUCUGUAGGGUAAUUAGUAACAUGUGUUAAGUAUU,0.694
UGGGAUCAAACCCAGGACAGCAUUCAUCCUAGGCAAAUGCUGGACCAUACCCUCAGCCCAUCACCAAUAUUUUAACUGAGGCAUUGCAUUAAACCACACACCACACACAC,2.12
CAUGUGUCCUGGAGAGAGAAGGAAGAUUAUCAUCCCUCCAUUCCUGGCCUAUGGCGAGAAAGGCUAUGGGACAGUGAUCCCCCCACAGGCCUCGCUGGUCUUUCACGUCC,0.189
CCAGCCAAAUAGUGUUCUCGGGGUGGUGGCUGGGCAGCGCCUAUGUUUCUCUGGAGAUUCCUGCAACCUCAAGAGACUUCCCAGGCGCUCAGGCCUGGAUCUUGCUCCUC,0.325
AUUUCUCUUCAGUUGGUGUGUUUCCGGGAUGUCUUAUUUUUAGAUGGUUACACUGUUAGAACACUAUUUUUCAGAAUCUGAAUGUAAUUUGUGUAAUAAAGUGUUUUCAG,0.625
AUGCUGGGACUGCUCCUACUCUCUGUCCCACCCCUCACCCAGCUGUGGUCCGGCUUUGGGAGAGUGGUGAAUUGCGCUGCCCGAACUCGGAGCGGAGCAGGGUAGGGACC,0.362
ACCAAAUCUACCCUCCACGGCCCUGAGGCCUUAUCAGUUCCACUGAUUAAAAACUUUCUCUUCCACGGACUUUAAGCCCGGUAGGAAAGAGAGAGGAGGAGGGGGAAAGA,0.253
CAAAGAGGUAUAAUGUGGGAUGCACCAAACGAGUGGGACUUUUUCACUCAGACCGAAGCAAGCUGCAGAAGGCAGGGACCACAACCCACAACCGCCGACGGGCCAGCAAG,0.275
GAUGGUUAGACUUGUAGUCACUGGGCUUUUGUUUUGCUUUAUGGAAAUCAUUGAAGGUCUGGAUCCCUUUCUCUGAAUGGAGAGAUUGAGAGGGAUGUCGGGCAGUUCCC,1.71

# Sample 2
# Target: Homeobox protein Hox-B13, full length (HOXB13, Homo sapiens, UniProt Q92826, residues 1-284)
# Chain of UniProt Q92826 (whole entry, looked up): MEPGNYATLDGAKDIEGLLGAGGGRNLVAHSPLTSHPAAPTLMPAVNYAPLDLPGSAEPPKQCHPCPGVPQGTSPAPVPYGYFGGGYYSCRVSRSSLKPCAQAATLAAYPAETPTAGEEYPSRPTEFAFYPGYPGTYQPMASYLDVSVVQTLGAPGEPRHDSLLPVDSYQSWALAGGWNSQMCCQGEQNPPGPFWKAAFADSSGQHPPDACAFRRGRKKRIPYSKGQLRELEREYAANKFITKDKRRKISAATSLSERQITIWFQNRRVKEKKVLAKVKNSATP
# Method: protein-binding microarray
# Form: hairpin DNA
# Sample: in vitro
# Tested at: not given
# Notes: whole hairpin DNA, median over replicate spots
# Baseline: not given
# Direction: higher = stronger binding
Strand,median fluorescence [a.u.]
GAGGCCGTTTTACTAGGGCCTCCTGGCCCTAGTAAAACGGCCTCACACTC,4480
GAGGCCGTTTTACAAGGGCCTCCTGGCCCTTGTAAAACGGCCTCACACTC,4700
GAGGCCGTTTTACGAGGGCCTCCTGGCCCTCGTAAAACGGCCTCACACTC (5mC at 38),5490
GAGGCCGGTTTACGAGGGCCTCCTGGCCCTCGTAAACCGGCCTCACACTC,5470
GAGGCCGTTTTCGGAGGGCCTCCTGGCCCTCCGAAAACGGCCTCACACTC (5mC at 32),3930
GAGGCCGTTTGATTGGGGCCTCCTGGCCCCAATCAAACGGCCTCACACTC (5mC at 34),4270
GAGGCCGTTTTATTCGGGCCTCCTGGCCCGAATAAAACGGCCTCACACTC (5mC at 29),4230
GAGGCCGTTTTACGACGGCCTCCTGGCCGTCGTAAAACGGCCTCACACTC,4460
GAGGCCCGTTTATTGGGGCCTCCTGGCCCCAATAAACGGGCCTCACACTC (5mC at 7 37),4620
GAGGCCCGTTTATTGGGGCCTCCTGGCCCCAATAAACGGGCCTCACACTC,4660
GAGGCCGTTTTATTGAGGCCTCCTGGCCTCAATAAAACGGCCTCACACTC,4690
GAGGCCGTCGTATTGGGGCCTCCTGGCCCCAATACGACGGCCTCACACTC (5mC at 9 35),4120
GAGGCCGTGTTATTGGGGCCTCCTGGCCCCAATAACACGGCCTCACACTC (5mC at 36),4260
GAGGCCGTTTTACCGGGGCCTCCTGGCCCCGGTAAAACGGCCTCACACTC (5mC at 30),4360
GAGGCCGTTGTACGAGGGCCTCCTGGCCCTCGTACAACGGCCTCACACTC (5mC at 35),4200
GAGGCCCGTTTACGAGGGCCTCCTGGCCCTCGTAAACGGGCCTCACACTC (5mC at 7),5000
GAGGCCGTTTCGCGAGGGCCTCCTGGCCCTCGCGAAACGGCCTCACACTC (5mC at 11),4040
GAGGCCGTTTTACGAGAGCCTCCTGGCTCTCGTAAAACGGCCTCACACTC,5090
GAGGCCGTTTTACGGGGGCCTCCTGGCCCCCGTAAAACGGCCTCACACTC (5mC at 30),5370
GAGGCCGTTGTATTGGGGCCTCCTGGCCCCAATACAACGGCCTCACACTC,4030
GAGGCCGCGTTACGAGGGCCTCCTGGCCCTCGTAACGCGGCCTCACACTC (5mC at 8),4520
GAGGCCGTTTTATCGGGGCCTCCTGGCCCCGATAAAACGGCCTCACACTC,4340
GAGGCCGGTTTACGAGGGCCTCCTGGCCCTCGTAAACCGGCCTCACACTC (5mC at 37),5430
GAGGCCGTTTTACGGGGGCCTCCTGGCCCCCGTAAAACGGCCTCACACTC,4670
GAGGCCGTTTTATTTGGGCCTCCTGGCCCAAATAAAACGGCCTCACACTC,4620

# Sample 3
# Target: Prothrombin, mature alpha-thrombin (F2, Homo sapiens, UniProt P00734)
# Method: aptamer microarray, sandwich
# Form: DNA with 2'F-ANA
# Sample: in vitro
# Tested at: 200 nM
# Notes: whole 15-mer aptamer, many near background
# Added: Cy3 exosite-II aptamer, 400 nM
# Direction: higher = stronger binding
# Strand: GGTTGGTGTGGTTGG
Modification,mean fluorescence intensity [a.u.]
2'F-ANA at 4 8 9 10 11 12 13 15,79.6
2'F-ANA at 1 2 4 5 6 8 9 10 12 13 14 15,50.5
2'F-ANA at 1 4 6 8 9 13 15,79.2
2'F-ANA at 8 10 11 12,204
2'F-ANA at 3 5 7 8 10 11 12 15,62.8
2'F-ANA at 1 2 4 6 8 10 11 13 14,69.5
2'F-ANA at 5 12 13 14,44.7
2'F-ANA at 1 4 6 8 13 14 15,51.7
2'F-ANA at 2 3 4 6 8 12 13,605
2'F-ANA at 1 3 4 6 11,157
2'F-ANA at 1 2 3 8 10 11 12 13 15,91.1
2'F-ANA at 2 3 5 8 9 13 14 15,55.7
2'F-ANA at 1 3 7 8 10 11 14 15,59.4
2'F-ANA at 1 2 4 5 6 9 12 14,48
2'F-ANA at 3 4 7 10 11 14 15,197
2'F-ANA at 2 6 8 9 10 11,118
2'F-ANA at 2 4 6 7 9 12 13 15,305
2'F-ANA at 1 2 5 6 10 11 12 13 14,48.6
2'F-ANA at 2 3 5 6 7 13 14 15,59.2
2'F-ANA at 1 2 4 5 8 10 13 14 15,47.4
2'F-ANA at 2 5 7 11 12 14 15,216
2'F-ANA at 1 2 3 5 6 7 8 9 11 12 13 14,48.7
2'F-ANA at 1 3 4 7 8 10 11 14,86.3
2'F-ANA at 2 3 4 5 6 10 12 13,56.4
2'F-ANA at 2 3 4 6 8 9 11 12,657

# Sample 4
# Target: CCNA2, cyclin fold, Cln2 fusion (human)
# Method: yeast growth competition, sequencing
# Sample: yeast
# Notes: strong parent motif
# Baseline: not given
# Direction: higher = stronger binding
# Starting sequence: PKN2 docking peptide (human); VSAVQKLDFSDTM; partner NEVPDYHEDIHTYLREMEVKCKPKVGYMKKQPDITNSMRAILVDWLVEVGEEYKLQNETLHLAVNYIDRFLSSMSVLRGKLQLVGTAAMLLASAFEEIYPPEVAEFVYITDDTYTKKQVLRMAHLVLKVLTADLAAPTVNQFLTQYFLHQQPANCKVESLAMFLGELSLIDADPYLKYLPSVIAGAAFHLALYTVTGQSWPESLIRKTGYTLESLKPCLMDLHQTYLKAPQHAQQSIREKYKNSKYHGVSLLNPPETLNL
Variant,normalised enrichment score
VSAVQHLDFSDTM [K6H],1.54
VSAVQKLDFVDTM [S10V],0.91
VSAVQALDFSDTM [K6A],0.961
VSDVQKLDFSDTM [A3D],-0.852
VSAVQKLDDSDTM [F9D],-0.361
VSAVQKLDFSCTM [D11C],2.79
VSAVQKGDFSDTM [L7G],-0.601
VSAVQKLDFSDKM [T12K],2.23
VSWVQKLDFSDTM [A3W],0.647
VSAVQELDFSDTM [K6E],-0.147
VSAVQKLDFSWTM [D11W],1.23
VSAVQKLQFSDTM [D8Q],1.1
VSAVQKLDFSDTG [M13G],2.16
VSAVQKLWFSDTM [D8W],1.68
YSAVQKLDFSDTM [V1Y],1.94
VSAVQKLDFSPTM [D11P],1.19
VSAKQKLDFSDTM [V4K],3.08
VSAFQKLDFSDTM [V4F],1.09
VSAVQKLDFGDTM [S10G],2.24
VSAVQILDFSDTM [K6I],-0.199
VSQVQKLDFSDTM [A3Q],-0.513
VIAVQKLDFSDTM [S2I],1.01
VSAVQKLDFSDWM [T12W],2.47
VSAVQKHDFSDTM [L7H],0.162
VSAVQNLDFSDTM [K6N],0.331

# Sample 5
# Target: Protein C-ets-1 (ETS1, Homo sapiens, UniProt P14921, residues 1-441, Y397A, full length assumed)
# Chain of UniProt P14921 (whole entry, unmodified, looked up): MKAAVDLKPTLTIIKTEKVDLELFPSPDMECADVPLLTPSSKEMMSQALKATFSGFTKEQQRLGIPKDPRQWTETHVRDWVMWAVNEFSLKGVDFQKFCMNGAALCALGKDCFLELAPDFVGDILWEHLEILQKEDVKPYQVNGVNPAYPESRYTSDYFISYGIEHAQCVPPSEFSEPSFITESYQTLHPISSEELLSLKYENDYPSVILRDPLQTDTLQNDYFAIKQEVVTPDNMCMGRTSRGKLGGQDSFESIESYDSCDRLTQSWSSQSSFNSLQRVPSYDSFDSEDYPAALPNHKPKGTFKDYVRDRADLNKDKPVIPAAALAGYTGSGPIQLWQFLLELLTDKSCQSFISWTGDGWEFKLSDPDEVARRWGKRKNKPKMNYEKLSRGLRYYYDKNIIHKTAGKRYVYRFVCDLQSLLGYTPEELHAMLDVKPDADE
# Method: protein-binding microarray
# Form: double-stranded DNA, one strand shown
# Sample: in vitro
# Tested at: not given
# Notes: k-mer, scored over probes, only values ≥0.25
# Direction: higher = stronger binding
Strand,E-score
CAACGACA,0.263
AACATCCG,0.437
ATCCGGCG,0.31
GTACACAA,0.273
ACGGCAAC,0.294
ATATCAAC,0.284
GCTTCCGA,0.28
ACCGACAA,0.347
TTGCAAAA,0.303
CGTCGACA,0.286
ACAATGGC,0.323
CACATGAC,0.319
ACATTTCC,0.318
TACAACAA,0.272
TGACACAA,0.355
GACGTCAA,0.274
TCTACAAA,0.26
ACAACACA,0.265
ACAATCGC,0.254
AACTTCCT,0.37

# Sample 6
# Target: Histone acetyltransferase KAT6A, winged helix 1, GST fusion (KAT6A, Homo sapiens, UniProt Q92794, residues 1-85)
# Method: protein binding microarray
# Form: double-stranded DNA, one strand shown
# Sample: in vitro
# Tested at: not given
# Notes: 8-mer, flanks averaged, mean of 2 arrays, mostly near background
# Baseline: not given
# Direction: higher = stronger binding
# Construct (chain): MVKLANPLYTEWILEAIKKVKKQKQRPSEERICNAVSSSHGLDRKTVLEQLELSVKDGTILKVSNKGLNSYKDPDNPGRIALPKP
Strand,E-score
ATTTGTCA,-0.266
GGCCCCCC,0.146
AGGCTGAA,-0.214
AGGTACGA,-0.134
AGGCACAA,-0.177
CCTGCTAC,-0.1
CAACCGGA,0.0612
ACGACCCT,-0.189
TAACCGCA,0.105
ACATAACT,-0.068
ATGAGTAG,-0.133
ACAGGGCT,-0.0641
GGCATACC,0.0111
AGCCCTCA,-0.125
CCGGACTC,0.168
ATACACTA,-0.166
ACCCCTCA,-0.0915
ATCATACC,-0.0309
AATCGTAG,-0.194

# For quick reference, copied from above (sample 4):
Variant,normalised enrichment score
VSDVQKLDFSDTM [A3D],-0.852
VSAVQKLDDSDTM [F9D],-0.361
VSAVQKLDFSCTM [D11C],2.79
VSAVQKGDFSDTM [L7G],-0.601
VSAVQKLDFSDKM [T12K],2.23
VSWVQKLDFSDTM [A3W],0.647
VSAVQELDFSDTM [K6E],-0.147
VSAVQKLDFSWTM [D11W],1.23
VSAVQKLQFSDTM [D8Q],1.1
VSAVQKLDFSDTG [M13G],2.16
VSAVQKLWFSDTM [D8W],1.68
YSAVQKLDFSDTM [V1Y],1.94
VSAVQKLDFSPTM [D11P],1.19
VSAKQKLDFSDTM [V4K],3.08
VSAFQKLDFSDTM [V4F],1.09
VSAVQKLDFGDTM [S10G],2.24
VSAVQILDFSDTM [K6I],-0.199
